Measured values of several laboratories.
Each numbered part is a random draw from the data of one study; scales do not carry over between parts.
UniProt Q05940, sequence (whole entry, looked up): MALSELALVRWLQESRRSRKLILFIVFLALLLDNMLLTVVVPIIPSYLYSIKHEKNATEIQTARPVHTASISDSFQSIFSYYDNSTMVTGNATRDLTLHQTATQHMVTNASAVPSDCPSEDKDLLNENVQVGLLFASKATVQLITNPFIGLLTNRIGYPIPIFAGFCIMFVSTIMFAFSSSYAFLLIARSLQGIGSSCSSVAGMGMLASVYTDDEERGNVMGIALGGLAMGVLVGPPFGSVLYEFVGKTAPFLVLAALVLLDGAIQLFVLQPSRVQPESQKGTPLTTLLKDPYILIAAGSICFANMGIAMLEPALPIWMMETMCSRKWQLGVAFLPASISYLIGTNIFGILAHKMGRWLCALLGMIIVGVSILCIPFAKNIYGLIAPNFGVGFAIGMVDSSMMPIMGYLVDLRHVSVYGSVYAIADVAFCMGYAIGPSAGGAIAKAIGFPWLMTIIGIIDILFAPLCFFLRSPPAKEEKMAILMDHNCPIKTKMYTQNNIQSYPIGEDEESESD
UniProt P10721, sequence (whole entry, unmodified, looked up): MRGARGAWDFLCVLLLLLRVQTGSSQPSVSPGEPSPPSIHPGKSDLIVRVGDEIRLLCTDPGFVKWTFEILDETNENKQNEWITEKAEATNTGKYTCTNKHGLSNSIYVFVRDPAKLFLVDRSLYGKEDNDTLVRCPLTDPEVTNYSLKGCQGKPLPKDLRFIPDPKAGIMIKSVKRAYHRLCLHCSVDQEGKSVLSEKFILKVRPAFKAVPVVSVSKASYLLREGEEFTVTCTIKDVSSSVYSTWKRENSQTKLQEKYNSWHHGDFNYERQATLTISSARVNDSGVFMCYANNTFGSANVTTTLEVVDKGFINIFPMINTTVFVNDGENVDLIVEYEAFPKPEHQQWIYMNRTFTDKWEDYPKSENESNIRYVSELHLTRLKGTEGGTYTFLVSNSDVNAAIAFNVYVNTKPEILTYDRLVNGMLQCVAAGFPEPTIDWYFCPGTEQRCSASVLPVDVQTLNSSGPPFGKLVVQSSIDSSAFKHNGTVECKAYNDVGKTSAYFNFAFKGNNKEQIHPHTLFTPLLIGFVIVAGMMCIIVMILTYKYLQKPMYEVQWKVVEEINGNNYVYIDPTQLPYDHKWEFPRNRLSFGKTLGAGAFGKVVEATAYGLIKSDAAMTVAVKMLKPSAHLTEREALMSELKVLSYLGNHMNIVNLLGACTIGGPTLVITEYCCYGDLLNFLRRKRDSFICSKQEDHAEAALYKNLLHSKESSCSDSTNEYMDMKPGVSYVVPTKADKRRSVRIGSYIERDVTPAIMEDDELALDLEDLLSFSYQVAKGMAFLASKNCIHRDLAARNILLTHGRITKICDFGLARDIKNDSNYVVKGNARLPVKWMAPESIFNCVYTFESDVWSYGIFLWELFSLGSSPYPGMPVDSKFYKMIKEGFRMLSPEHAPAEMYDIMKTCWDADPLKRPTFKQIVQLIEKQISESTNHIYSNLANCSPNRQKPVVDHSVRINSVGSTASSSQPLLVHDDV
UniProt Q16832, sequence (whole entry, looked up): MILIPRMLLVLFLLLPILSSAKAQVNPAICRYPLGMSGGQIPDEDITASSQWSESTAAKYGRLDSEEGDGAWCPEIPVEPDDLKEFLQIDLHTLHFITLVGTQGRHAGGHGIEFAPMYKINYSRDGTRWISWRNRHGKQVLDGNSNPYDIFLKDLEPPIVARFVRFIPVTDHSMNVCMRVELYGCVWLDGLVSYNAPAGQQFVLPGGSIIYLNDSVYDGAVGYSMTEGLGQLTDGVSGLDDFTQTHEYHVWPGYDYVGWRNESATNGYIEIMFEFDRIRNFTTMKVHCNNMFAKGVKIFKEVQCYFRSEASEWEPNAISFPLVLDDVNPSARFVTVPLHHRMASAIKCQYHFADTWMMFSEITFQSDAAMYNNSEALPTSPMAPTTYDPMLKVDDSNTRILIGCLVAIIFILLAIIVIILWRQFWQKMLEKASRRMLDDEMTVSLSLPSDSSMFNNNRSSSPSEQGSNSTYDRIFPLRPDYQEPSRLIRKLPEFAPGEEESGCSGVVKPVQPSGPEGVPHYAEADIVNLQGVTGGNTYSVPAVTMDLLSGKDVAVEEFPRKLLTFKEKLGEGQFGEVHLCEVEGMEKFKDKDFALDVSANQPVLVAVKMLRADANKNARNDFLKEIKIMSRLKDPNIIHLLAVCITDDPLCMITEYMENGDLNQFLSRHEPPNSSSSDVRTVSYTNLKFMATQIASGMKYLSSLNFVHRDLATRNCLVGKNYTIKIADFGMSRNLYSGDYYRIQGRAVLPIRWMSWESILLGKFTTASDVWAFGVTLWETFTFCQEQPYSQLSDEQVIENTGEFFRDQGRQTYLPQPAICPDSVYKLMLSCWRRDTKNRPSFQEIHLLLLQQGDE

Series 1
Target: Ephrin type-A receptor 2 (EPHA2, Homo sapiens, UniProt P29317)
UniProt P29317, sequence (whole entry, looked up): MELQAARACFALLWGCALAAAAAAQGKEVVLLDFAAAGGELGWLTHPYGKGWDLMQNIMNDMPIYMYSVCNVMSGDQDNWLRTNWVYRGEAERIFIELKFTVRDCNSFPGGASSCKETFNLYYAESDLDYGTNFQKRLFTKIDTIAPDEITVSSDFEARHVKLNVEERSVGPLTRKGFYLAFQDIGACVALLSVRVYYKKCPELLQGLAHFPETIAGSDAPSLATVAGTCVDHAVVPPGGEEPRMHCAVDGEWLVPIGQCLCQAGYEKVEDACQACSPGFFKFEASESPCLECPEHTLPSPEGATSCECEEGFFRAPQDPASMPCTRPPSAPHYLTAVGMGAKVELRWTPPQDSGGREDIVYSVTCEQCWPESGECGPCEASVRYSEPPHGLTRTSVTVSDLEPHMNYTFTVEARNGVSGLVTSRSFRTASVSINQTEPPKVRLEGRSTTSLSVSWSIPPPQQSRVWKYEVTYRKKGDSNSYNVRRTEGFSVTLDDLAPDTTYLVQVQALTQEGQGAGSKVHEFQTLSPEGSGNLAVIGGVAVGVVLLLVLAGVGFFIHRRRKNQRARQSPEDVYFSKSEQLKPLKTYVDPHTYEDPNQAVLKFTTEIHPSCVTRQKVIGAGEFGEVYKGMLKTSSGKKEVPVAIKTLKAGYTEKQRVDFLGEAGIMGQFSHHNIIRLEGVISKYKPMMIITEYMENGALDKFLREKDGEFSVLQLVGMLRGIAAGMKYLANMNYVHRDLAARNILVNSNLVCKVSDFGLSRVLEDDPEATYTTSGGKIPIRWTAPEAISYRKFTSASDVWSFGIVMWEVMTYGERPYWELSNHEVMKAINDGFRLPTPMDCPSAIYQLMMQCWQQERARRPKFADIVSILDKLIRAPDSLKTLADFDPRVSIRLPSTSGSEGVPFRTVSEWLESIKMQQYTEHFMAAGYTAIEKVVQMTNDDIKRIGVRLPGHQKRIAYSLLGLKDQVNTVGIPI
Observed: enzyme activity
Action: inhibitor
Concentration: 0.5 µM
Baseline: control
Measurement: remaining activity
Nc1ccc2ncnc(NCCc3ccc(Oc4ccccc4)cc3)c2c1: 103%
Cc1cccc(-c2[nH]c(C(C)(C)C)nc2-c2ccc3c(c2)OCO3)n1: 99.2%
COc1cc2nccc(Oc3ccc(NC(=S)NC(=O)c4ccccc4C)cc3)c2cc1OC: 86.9%
OCC(O)CCON=C1C(c2c(O)[nH]c3ccccc23)=Nc2ccccc21 (stereo not shown): 65.3%
COc1cc2ncnc(Nc3ccc(F)c(Cl)c3)c2cc1OCCCN1CCOCC1: 85.7%
CN(C)c1ccc(C=C2C(=O)Nc3ccccc32)cc1: 107%
Cc1nc(-c2ccccc2)c(-c2ccncc2)o1: 104%
Cn1c2ccccc2c2c3c(c4c5ccccc5n(CCC#N)c4c21)CNC3=O: 92.5%
Cc1ccc(NC(=O)c2ccc(CN3CCN(C)CC3)cc2)cc1Nc1nc(-c2cccnc2)cs1: 91.2%
Cn1sc(=O)n(Cc2ccccc2)c1=O: 96.5%
COc1ccc(C(=O)Nc2sc3c(c2C(N)=O)CCCC3)cc1OC: 102%
COc1ccc(CNC(=O)Nc2ncc([N+](=O)[O-])s2)cc1: 100%
O=C1NC(=O)C(c2cn(CCCn3ccnc3)c3ccccc23)=C1Nc1ccccc1: 101%
O=C(CCCc1ccc(-c2ccccc2F)cc1)Nc1ccc(O)cc1: 101%
N#CC(C#N)=C(N)/C(C#N)=C/c1ccc(O)cc1: 100%
CC(C)[C@H](CO)Nc1nc(Nc2cc(N)cc(Cl)c2)c2ncn(C(C)C)c2n1: 67.5%

Series 2
Host: mouse
Sample: microsomes or S9
Concentration: 2 µM
Time: 0.5 h
Measurement: remaining compound
c1cnc2c(c1)OC(Cn1nnc3ncc(-c4ccc(OCC5CCNCC5)cc4)nc31)CN2 (stereo not shown): 86.6%
CCOC(=O)C1=C(c2ccccc2)c2cc3c(cc2C1=O)OCO3: 3.58%
COc1ccc(-c2nc(-c3nnn4c3COC(c3ccc(C)cc3)C4)no2)cn1 (stereo not shown): 32.8%
O=S(=O)(/C(=C(\c1ccccc1)n1ccnc1)c1ccccc1)c1ccccc1: 4.54%
COc1cc(C(=O)N2CCCCCC2)c(N(C)S(C)(=O)=O)cc1OC: 15.5%

Series 3
Target: Beta-1 adrenergic receptor (ADRB1, Homo sapiens, UniProt P08588)
UniProt P08588, sequence (whole entry, looked up): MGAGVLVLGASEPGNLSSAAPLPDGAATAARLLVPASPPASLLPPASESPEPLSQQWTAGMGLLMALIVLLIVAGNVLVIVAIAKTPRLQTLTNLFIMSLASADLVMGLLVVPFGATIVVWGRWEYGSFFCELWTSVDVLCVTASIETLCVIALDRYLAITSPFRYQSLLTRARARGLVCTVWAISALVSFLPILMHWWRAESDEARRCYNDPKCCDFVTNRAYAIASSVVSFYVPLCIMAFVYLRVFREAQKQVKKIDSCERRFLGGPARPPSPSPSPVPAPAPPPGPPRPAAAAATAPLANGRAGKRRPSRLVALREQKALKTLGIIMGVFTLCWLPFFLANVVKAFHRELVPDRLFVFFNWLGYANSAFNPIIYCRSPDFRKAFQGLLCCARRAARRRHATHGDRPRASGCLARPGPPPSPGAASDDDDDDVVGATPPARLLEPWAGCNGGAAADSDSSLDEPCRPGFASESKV
Action: antagonist
Measurement: IC50
Cc1cc(=O)oc2c(O)c(O)ccc12: ≥ 100 µM
Clc1ccc2c(c1)N=C(N1CCNCC1)c1ccccc1N2: ≥ 100 µM
O=C(COc1ccccc1)Nc1ccc([C@@H](O)[C@H]2COCC(=O)N2CC2CC2)cc1: ≥ 100 µM
CN(Cc1ccc(F)cc1)Cc1ccccc1OCC(O)CN1CCCCC1 (stereo not shown): ≥ 100 µM
Cn1c(=O)n(-c2ccc(N3CCN(C(=O)OC(C)(C)C)CC3)c(C(F)(F)F)c2)c2c3cc(-c4cncc(Cl)c4)ccc3ncc21: ≥ 100 µM
O=c1cc(N2CCNCC2)nc2sc(C(F)(F)F)nn12: ≥ 100 µM
OC(CNc1nccc(-c2cccnc2)n1)COc1ccc(Cl)cc1 (stereo not shown): ≥ 100 µM

Series 4
SMILES: O=C(Nc1cnc(Oc2ccc(F)cc2)nc1)N1CCc2ncccc2[C@@H]1c1ccc(F)cc1
Observed: cell-free assay
Method: competition with immobilised ligand
Concentration: 1 µM
Measurement: remaining binding
Epidermal growth factor receptor (EGFR, Homo sapiens, UniProt P00533, del747-752/P753S): 100%
Receptor-type tyrosine-protein kinase FLT3 (FLT3, Homo sapiens, UniProt P36888): 84%
Mast/stem cell growth factor receptor Kit (KIT, Homo sapiens, UniProt P10721, D816H): 96%
Discoidin domain-containing receptor 2 (DDR2, Homo sapiens, UniProt Q16832): 100%
Epidermal growth factor receptor (EGFR, Homo sapiens, UniProt P00533, L858R/T790M): 70%

Further values, each from its own experiment
N#Cc1ccc2[nH]cc(CCCCN3CCN(c4ccc5oc(C(N)=O)cc5c4)CC3)c2c1  IC50 (Synaptic vesicular amine transporter (SLC18A2, Homo sapiens, UniProt Q05940); amine uptake, inhibitor): 0.069 µM
